Assay results pooled from the literature.
Parts stem from different laboratories: compare values within a part only.

Series 1 — technique: protein binding microarray; molecule type: double-stranded DNA, one strand shown; sample: in vitro; tested at: not given; reference: not given; reading: higher = stronger binding
Target: Histone acetyltransferase KAT6A, winged helix 1, GST fusion (KAT6A, Homo sapiens, UniProt Q92794, residues 1-85)
Setting: 8-mer, flanks averaged, mean of 2 arrays, mostly near background
Construct (chain): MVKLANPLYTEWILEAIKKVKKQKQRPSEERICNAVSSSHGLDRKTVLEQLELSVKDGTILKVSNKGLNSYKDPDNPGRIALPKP
Strand | E-score
AAGGAAGC | -0.0904
CCGACCCA | 0.162
CCGTGTTA | 0.308
CTACCAAG | -0.201
ACACTTCA | -0.276
AGATTGGG | -0.318
GAAGTCGC | 0.152
ATGTTCGA | -0.152
AGACGGGA | 0.183
AAGGACAC | -0.166
TAGTTGCA | -0.13
ATAAGGAC | 0.0287
AAAAATAA | -0.164
CCACGAAC | -0.0816
GGATTAGA | -0.0697
AAGACCAC | -0.182
GTCTTGGA | -0.159
GAGATAGC | -0.0938

Series 2 — technique: RNA Bind-n-Seq; molecule type: RNA; sample: in vitro; tested at: 365 nM; reference: no-protein control; reading: higher = stronger binding
Target: RNA binding protein fox-1 homolog 2, RRM domain, GST-SBP tag (RBFOX2, Homo sapiens, UniProt O43251-10, residues 100-194)
Setting: natural RNA segment, single round, ends assumed
Constant ends, left off below: GGGAGUUCUACAGUCCGACGAUC … UGGAAUUCUCGGGUGCCAA
Target sequence (chain): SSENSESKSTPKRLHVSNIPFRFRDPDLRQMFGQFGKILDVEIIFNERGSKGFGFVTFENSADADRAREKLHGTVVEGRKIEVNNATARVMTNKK
Strand | RBNS enrichment (R)
UCUGCUCAUUCCUUGGUUUGUCUUGGGUCCCACUGGGCAGGUGUCUAGCACUGAGAGGGAGAGUGUAGACAAGGGAGCCACGGAGGUACUGGAGGCAGCAAUUCCUCAUC | 0.73
ACUGCACCAGUGCCUGCUCAUUGAGGAGAGUAACUGCUGGCCAGGCAGAAAGAAUAUGGGCUCUGCAAUGAGACAGACCUGGAGGGGACUCUCCCGUUGAGCACUAGCAG | 0.586
GGGUCCCCGGGAGCACACGAACCCUGCCAGGCCCCCGCUGGCUCCUCCAGGCACGUCCCGGACCUGUGGGGCCCCAGAGAGGGGACAUUUCCCUCCUGGGAGAGAAGGAG | 0.508
CCCUUUCCUUGCCUUGUGUCCGGAACCUUCACACCUUUACCCCUGCGCUAGCCCCUGGCUGAGAGGAGAGAACCUGUCCUCUGCCGGUGCUCAGUCAAGUGAUGGCUCCC | 0.75
CGUGCAGACAUGUGACAGGAUUGUCUCUCAACAGCACAAGUACUUCAAUGCCUACCGUCGGCCCACCUGAGCGGUCUUCACCUUUGCCAACUUUGACGGAUUUCUGUGUG | 0.394
CACUUUAUUUAAAGGCAAGCAAUAUUUUCUUGAUCAUAAAUAUUUUGUAAUGAAAUACUUCCUCUUUUCCAGGGCUUUGUAUGCACUUGUAUAAUUACAUUGAUGGCAAU | 0.718
GGGUGUUCACAGAUGGAGCGAGCUUGCAGCCGCGUGGCUGUGCUGCUCUGUGAGAAGGCGUGCCAGCCAUUAGGAAGCCCCACCGCCAAAGGAGGUGCACCCAGGAGGGU | 0.911
CCGCUGGAGGGGUUUCAAUCCCCCACCCUGGGGCUCUUCUGCGCAGAAGCUGAAGUCUACGCUCCUCCCAAUCUUUGGUCCCAGUGCCGCUGUUCGCCUUCCUGCUGGUU | 0.331
CUGGAGCUUCUGGGCGCAAGUUACAGACAUCAUAACCACUGAUCCUAACACACAUAACCAUCAGCCAGAAGAUGCCGCAUGCUCCCCUGUGUCUGGAGGAUUUUGUCACC | 5.22
AUCACUGAGUUUCUGAUUUAGUAGUUUGUUCUGUAGAUCCCCAAAGCUGUGCUGUGUAUUGGUGGUUUUAGAAAGACUCAGCUCAUGAGCUGUGUUAAACCUUAACAUGA | 0.538
UUCUCUUCUCAUUCCUGUUUUCAUUGAUUUCCCACAUGUAGUCCUUUUGCUCAGGAAGUCUUUGGGGAAAUUAAGGAUCUUUGAAGCUCUGAAAUAGGUGAUCAGGUUAG | 0.403
CCUGCCCAGGGUAGGCCUGGCAUGAGGGGUUAGGUCAGCCAAUGUCAGCUGCUUCUCUUGGGGCCCUCUCAGAGUCUAUCUCCCCAAGACAGGAAGGGAAAAGCAAAUUU | 0.355

Series 3 — technique: RNA Bind-n-Seq; molecule type: RNA; sample: in vitro; tested at: 1 µM; setting: whole 134-nt RNA, ends assumed; added: 150 mM KCl; reference: input library; reading: higher = stronger binding
Target: Ras GTPase-activating protein-binding protein 1, C-terminal RGG region (G3BP1, Homo sapiens, UniProt Q13283)
Chain of UniProt Q13283 (whole entry, looked up): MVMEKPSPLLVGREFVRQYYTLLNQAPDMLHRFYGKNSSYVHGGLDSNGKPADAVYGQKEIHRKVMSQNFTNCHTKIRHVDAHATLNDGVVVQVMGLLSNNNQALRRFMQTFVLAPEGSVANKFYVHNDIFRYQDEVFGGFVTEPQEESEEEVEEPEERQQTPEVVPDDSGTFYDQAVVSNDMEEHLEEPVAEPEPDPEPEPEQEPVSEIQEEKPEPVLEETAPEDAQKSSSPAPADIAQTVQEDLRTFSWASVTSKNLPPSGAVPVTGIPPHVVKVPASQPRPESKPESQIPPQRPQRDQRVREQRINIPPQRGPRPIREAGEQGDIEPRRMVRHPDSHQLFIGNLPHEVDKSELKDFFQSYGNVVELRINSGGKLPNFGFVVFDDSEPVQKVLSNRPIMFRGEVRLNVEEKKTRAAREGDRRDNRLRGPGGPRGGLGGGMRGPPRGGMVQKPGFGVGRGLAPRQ
Constant ends, left off below: GGGAGUUCUACAGUCCGACGAUC … UGGAAUUCUCGGGUGUCAAGG
Strand | log2 enrichment
CAAGUCCUGUGCUACACAUCGUAUGUACCGAAUCGGAAAAAGGAGGUUUUUUUGGAAAGUAUUAUGUUACGCCGUUCGGAUCUGCACUUC | -1.81
GUCCUGUGCUACACAUCGUAUGUACCGAAUCAAACCCCCCCAAAUUUAAAUUUUUAAAAAAGUAUUAUGUUACGCCGUUCGGAUCUGCAC | -0.235
CACAGACAACACGCACCCACACAGACACAGAGAGAAGGGGUUGGGAUGGGGACAGGGUGCACAGCAGGGCGGGGUAGGACCCCAGCCCCU | -0.173
UGGGAGGUGGAUUUUGUUUCUUUUUUUAGCUCAUUUCCAGGGGUGGGAAUUUUUUUUUAAUAUGUGUCAUGAAUAAAGUUGUUUUUGAAA | 2.01
ACCAUGCAGGUGGGCAUCUUUGGAAAGUGGGGCAAGGGGGGGAUAGGGAGGGGGGUAACACUUUGGGAACAGGUGGUCCCAGGUCGUUUC | -1.09
AGUCCUGUGCUACACAUCGUAUGUACCGAAUCGGGGAAAGGGGAGGGGAAAAAGGGGAAAGUAUUAUGUUACGCCGUUCGGAUCUGCACU | 1.86
CCAGAGCCAGAGAGCUUGGGCCCUGGGACGCCUGGGUUCCCCGAGCAGGAGGAAGACGAACUUCACCGCACCCUGGGCGUGGAGCGGUUU | -1.29
UAACUUUAGAGGAGGAUCUGAUGGAUAUGGCAGUGGACGUGGAUUUGGGGAUGGCUAUAAUGGGUAUGGAGGAGGACGUGGAGGUGGCAA | -0.648
CAAGUCCUGUGCUACACAUCGUAUGUACCGAAUCGGUUUGGAAAAAAAGGAAAGGAAAGUAUUAUGUUACGCCGUUCGGAUCUGCACUUC | -1.82
UGGCCCUGGUGGCAUGCGGGGAGGAAGAGGUGGCCUCAUGGAUCGUGGUGGUCCUGGUGGAAUGUUCAGAGGUGGCCGUGGUGGAGACAG | 1.93

Series 4 — technique: universal PBM; molecule type: double-stranded DNA, one strand shown; sample: in vitro; tested at: 600 nM; reading: higher = stronger binding
Target: Sal-like protein 4, full length isoform A (SALL4, Homo sapiens, UniProt Q9UJQ4, residues 1-1053)
Chain of UniProt Q9UJQ4 (whole entry, looked up): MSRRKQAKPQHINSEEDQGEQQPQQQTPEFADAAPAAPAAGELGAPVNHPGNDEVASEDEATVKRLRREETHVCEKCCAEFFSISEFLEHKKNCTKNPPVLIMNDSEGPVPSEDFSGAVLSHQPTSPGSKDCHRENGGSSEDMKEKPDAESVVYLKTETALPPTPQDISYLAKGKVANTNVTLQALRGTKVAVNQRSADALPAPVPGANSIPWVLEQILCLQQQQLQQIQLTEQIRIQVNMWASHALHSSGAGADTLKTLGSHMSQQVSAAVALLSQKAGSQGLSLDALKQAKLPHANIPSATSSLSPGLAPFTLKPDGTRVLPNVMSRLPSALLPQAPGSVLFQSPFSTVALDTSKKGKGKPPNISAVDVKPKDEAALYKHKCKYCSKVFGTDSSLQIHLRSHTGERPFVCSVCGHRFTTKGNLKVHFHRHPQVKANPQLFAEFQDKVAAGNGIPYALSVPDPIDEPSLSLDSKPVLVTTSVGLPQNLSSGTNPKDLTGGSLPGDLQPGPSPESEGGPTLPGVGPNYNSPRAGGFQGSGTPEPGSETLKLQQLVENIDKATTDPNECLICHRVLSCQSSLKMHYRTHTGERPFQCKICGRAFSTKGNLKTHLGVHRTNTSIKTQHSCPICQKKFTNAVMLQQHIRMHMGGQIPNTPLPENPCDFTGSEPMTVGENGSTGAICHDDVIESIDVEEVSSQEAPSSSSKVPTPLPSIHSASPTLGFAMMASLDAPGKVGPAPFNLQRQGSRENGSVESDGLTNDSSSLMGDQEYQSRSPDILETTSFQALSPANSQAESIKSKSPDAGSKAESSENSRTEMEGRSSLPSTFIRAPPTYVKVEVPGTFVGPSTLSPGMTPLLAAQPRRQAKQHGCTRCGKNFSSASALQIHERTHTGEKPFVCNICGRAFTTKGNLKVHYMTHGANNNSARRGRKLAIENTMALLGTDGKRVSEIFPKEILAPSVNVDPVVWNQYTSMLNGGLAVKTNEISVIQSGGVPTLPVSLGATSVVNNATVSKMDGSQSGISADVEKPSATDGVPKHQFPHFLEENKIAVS
Setting: 8-mer, flanks averaged, mean of replicates
Strand | E-score
AGATCTAT | 0.215
CGGCTACC | -0.271
GATTAAAC | 0.0912
ACTAAAGA | 0.136
TACCTATA | 0.212
CGGCGCCA | -0.3
ATCGGACA | -0.0554
CAACGTAC | 0.0103
CCAGCGAC | -0.363
CTACAGAA | 0.189
ACCAGGGC | -0.328
AACAGGTC | -0.0519
ACTTACCG | -0.043
CATTTAGC | -0.0013
CCAATTAG | 0.142
AGGGCGCA | -0.288

Repeated from above (series 4):
Strand | E-score
ACTTACCG | -0.043
CCAGCGAC | -0.363
CATTTAGC | -0.0013
ACTAAAGA | 0.136
